Experimental data gathered from unrelated publications.
Compare with care: the assays were run in different laboratories. “And” joins repeats or separate records; there may be more than shown. Numbers after ± are the reported error.
NR3C1: Glucocorticoid receptor (NR3C1, Homo sapiens, UniProt P04150)

Sequences of proteins named here, by UniProt entry; tags and fusion partners are left off.
UniProt P04150, whole entry: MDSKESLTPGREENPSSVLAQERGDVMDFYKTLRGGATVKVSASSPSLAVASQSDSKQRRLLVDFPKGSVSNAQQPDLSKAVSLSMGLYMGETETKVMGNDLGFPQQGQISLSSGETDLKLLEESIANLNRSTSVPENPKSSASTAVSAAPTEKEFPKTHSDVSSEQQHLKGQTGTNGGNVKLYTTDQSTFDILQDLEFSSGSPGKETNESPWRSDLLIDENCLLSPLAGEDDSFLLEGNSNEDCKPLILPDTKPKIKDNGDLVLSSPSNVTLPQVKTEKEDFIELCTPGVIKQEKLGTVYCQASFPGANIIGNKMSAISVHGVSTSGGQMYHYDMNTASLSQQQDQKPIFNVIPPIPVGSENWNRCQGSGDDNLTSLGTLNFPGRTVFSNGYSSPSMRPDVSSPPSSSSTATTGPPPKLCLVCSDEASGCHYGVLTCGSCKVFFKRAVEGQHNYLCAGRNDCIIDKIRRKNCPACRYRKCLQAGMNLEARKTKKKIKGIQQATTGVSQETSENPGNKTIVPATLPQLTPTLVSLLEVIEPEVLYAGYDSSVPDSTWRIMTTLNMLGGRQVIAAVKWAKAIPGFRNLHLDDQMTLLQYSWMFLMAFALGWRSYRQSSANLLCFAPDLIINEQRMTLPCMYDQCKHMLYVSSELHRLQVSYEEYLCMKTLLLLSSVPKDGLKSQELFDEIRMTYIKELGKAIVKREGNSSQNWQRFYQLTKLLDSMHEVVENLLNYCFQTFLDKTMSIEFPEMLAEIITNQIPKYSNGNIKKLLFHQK
UniProt Q9UIG0, whole entry: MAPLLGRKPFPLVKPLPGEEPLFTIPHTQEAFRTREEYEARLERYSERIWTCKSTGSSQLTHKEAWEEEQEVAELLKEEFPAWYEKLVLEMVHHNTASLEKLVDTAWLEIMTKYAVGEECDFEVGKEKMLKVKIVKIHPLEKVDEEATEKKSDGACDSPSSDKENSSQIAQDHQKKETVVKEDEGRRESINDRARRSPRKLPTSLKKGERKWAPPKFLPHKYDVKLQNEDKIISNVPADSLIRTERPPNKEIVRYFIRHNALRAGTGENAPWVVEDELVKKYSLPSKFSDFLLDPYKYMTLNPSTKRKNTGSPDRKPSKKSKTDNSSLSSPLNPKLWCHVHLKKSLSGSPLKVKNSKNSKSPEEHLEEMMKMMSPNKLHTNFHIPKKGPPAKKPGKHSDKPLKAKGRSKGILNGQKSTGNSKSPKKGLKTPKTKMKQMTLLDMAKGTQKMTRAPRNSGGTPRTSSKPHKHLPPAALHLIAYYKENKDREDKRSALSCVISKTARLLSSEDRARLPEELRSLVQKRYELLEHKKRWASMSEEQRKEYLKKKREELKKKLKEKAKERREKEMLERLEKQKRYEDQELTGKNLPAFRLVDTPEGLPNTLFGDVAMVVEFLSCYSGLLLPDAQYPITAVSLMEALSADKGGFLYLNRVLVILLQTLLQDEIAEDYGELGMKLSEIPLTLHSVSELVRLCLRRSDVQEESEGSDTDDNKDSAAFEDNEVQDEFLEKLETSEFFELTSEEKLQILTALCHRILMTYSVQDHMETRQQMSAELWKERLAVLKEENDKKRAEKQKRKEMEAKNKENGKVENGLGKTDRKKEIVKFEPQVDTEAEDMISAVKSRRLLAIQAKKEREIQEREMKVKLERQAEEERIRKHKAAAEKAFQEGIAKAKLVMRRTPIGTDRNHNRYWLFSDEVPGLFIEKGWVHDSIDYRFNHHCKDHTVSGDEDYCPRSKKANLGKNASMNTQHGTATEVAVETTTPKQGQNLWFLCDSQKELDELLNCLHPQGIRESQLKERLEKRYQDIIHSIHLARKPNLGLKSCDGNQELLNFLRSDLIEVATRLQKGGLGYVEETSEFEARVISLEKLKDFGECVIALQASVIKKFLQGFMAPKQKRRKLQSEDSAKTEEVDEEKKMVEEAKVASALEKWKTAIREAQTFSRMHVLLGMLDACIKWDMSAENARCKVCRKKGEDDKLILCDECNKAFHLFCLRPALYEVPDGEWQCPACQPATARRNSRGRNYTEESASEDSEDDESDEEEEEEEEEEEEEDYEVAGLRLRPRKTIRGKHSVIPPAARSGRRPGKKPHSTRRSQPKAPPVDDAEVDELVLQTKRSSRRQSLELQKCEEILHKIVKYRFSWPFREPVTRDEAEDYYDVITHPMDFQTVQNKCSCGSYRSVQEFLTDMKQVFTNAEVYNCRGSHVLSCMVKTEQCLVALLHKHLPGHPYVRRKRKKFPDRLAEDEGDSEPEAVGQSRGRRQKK
UniProt Q9UL54, whole entry: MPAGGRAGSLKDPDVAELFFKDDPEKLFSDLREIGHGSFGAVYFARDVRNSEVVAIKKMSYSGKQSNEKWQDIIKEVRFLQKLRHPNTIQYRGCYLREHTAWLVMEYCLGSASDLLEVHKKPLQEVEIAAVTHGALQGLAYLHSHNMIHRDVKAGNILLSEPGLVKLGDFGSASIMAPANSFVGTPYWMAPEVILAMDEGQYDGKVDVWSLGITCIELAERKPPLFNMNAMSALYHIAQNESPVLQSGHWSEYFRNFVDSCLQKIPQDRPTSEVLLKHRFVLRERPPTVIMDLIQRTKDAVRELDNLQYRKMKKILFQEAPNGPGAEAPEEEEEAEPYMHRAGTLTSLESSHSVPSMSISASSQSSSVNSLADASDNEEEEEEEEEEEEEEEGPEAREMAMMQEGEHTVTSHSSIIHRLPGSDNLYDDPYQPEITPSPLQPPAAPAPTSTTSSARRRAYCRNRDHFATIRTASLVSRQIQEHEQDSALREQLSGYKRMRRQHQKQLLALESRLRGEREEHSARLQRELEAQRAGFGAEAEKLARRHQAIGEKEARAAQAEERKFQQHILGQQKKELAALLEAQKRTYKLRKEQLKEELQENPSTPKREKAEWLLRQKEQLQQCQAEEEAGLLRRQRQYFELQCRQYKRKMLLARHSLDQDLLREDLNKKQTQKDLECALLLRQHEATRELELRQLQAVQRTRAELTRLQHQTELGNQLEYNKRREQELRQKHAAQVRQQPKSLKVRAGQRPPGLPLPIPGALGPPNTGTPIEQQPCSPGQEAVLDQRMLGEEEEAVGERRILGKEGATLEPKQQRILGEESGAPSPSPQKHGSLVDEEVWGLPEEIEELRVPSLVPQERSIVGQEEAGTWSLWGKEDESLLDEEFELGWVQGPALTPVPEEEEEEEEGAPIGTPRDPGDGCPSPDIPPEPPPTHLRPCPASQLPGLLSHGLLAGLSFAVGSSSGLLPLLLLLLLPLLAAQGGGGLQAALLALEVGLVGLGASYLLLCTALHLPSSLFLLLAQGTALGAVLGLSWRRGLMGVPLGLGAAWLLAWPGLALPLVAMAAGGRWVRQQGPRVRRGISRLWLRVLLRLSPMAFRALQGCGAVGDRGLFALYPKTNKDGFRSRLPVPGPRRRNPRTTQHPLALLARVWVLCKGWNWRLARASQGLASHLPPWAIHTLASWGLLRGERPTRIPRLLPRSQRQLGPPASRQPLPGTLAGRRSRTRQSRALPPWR
UniProt P10636, whole entry, looked up: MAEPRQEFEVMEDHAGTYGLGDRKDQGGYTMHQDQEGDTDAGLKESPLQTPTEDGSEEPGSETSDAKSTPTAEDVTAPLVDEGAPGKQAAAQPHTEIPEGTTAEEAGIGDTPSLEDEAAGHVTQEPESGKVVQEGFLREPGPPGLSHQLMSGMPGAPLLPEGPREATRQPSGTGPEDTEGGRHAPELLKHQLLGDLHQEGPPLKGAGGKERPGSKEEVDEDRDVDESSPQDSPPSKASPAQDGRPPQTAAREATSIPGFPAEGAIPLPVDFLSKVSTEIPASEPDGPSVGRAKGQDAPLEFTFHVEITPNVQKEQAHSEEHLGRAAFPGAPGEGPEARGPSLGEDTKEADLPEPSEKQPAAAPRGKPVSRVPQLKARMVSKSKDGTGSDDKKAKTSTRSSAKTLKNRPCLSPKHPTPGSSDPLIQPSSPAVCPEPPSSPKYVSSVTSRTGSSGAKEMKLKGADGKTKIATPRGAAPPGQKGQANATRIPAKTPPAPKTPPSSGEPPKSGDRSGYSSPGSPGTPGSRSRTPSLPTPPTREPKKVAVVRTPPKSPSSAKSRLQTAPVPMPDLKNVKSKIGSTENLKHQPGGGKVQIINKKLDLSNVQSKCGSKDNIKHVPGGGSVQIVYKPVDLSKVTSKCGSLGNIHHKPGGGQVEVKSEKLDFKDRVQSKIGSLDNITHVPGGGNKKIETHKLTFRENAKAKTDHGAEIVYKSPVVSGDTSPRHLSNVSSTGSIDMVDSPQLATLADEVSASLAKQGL
UniProt Q9Y2H9, whole entry: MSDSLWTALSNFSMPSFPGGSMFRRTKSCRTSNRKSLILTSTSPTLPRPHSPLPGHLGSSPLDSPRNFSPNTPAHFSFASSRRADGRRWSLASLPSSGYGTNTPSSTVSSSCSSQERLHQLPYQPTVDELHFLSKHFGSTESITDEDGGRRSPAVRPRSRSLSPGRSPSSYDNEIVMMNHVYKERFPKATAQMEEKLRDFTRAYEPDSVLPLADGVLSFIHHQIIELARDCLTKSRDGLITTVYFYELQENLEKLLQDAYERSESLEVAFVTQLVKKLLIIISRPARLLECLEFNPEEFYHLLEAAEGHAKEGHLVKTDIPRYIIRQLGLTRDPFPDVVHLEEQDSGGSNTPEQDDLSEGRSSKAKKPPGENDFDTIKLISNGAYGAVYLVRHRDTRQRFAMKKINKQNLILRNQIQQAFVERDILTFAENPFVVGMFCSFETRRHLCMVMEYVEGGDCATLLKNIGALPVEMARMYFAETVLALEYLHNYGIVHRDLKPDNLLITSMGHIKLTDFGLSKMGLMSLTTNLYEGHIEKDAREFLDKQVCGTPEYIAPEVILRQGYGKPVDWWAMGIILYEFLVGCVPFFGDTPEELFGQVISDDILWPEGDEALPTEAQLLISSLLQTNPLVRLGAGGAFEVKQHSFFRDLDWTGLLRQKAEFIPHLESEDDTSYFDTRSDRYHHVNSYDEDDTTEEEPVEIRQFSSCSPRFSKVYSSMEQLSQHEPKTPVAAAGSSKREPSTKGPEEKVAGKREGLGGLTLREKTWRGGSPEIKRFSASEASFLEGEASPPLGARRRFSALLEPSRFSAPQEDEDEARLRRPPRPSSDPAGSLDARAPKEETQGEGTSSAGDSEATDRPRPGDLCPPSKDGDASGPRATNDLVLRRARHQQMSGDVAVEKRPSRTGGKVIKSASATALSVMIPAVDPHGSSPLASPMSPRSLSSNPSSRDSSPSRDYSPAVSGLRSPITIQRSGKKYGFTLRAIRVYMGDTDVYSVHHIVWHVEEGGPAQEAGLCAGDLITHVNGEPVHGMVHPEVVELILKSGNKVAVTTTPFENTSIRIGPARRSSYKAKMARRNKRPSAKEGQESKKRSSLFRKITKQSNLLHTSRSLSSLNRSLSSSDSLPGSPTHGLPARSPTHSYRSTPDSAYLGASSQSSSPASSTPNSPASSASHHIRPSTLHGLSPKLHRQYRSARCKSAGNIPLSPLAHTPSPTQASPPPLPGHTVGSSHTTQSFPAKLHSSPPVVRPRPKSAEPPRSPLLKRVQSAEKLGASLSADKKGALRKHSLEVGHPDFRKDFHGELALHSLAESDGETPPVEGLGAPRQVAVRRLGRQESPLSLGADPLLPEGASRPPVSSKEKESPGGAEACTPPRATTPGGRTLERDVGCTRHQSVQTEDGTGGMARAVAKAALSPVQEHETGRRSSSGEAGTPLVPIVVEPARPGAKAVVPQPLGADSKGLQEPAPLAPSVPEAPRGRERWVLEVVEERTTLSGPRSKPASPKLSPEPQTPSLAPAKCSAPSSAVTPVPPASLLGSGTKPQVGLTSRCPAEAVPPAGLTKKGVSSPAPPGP

Structure (SMILES)	target or system	test	system	setting	scale	endpoint	result
Cc1cccc(NC(=O)c2nn(Cc3cnc[nH]3)c3c2CN(C(=O)c2ccc[nH]2)CC3)c1	IDH1 R132C AML cells	Hoechst/Pyronin Y staining	–	3 µM, 7 days	–	G0-phase cells	54.1 ± 3.8%
CN(C)S(=O)(=O)c1cccc(-n2sc3ccccc3c2=O)c1	mouse vascular smooth muscle cells	Alizarin Red staining	–	30 µM, 21 days, together with: inorganic phosphate	baseline: vehicle	mineralization	41.8 ± 2%
CCN1CCN(Cc2ccc(Nc3ncc4c(n3)N(C)c3c(C)cccc3C(=O)N4C)cc2C(F)(F)F)CC1	HCT-116	cell growth, CellTiter-Glo	–	96 h	–	EC50	0.238 µM
O=C(Nc1cccnn1)N1CC(Oc2ccc(-c3ccccc3F)cn2)C1	–	–	healthy humans	oral	baseline: baseline	semen parameters	no effect
CC[C@@H]1C(=O)N(C)c2cnc(Nc3ccc(C(=O)NC4CCN(C)CC4)cc3OC)nc2N1C1CCCC1	Tyrosine-protein kinase BAZ1B (BAZ1B, Homo sapiens, UniProt Q9UIG0)	–	–	10 µM	–	delta Tm	0.03 ± 0.15 °C
O=C(/C=C/c1nc2ccccc2[nH]1)c1c(-c2ccccc2)c2cc(Cl)ccc2[nH]c1=O	SK-MEL-5	cell viability, CellTiter-Blue	–	72 h	–	EC50	5 µM
O=c1/c(=C/c2ccc(-c3ccccc3[N+](=O)[O-])o2)sc2nc3cc(Br)cnc3n12	Jurkat TAg T cells	TCR signalling, immunoblot	–	40 µM, 45 min preincubation, together with: OKT3 5 min	baseline: DMSO	phospho-p38 level	increased
CC1CCN(C(=O)CON=C2C=CCCC=CCCOC(=O)c3c(O)cc(O)cc3C2)CC1	SK-BR-3	Her-2 depletion, item: Her-2	–	overnight	–	EC50	≤ 0.5 µM
Cc1cc(C)c(CNC(=O)c2cc(-c3ccc(N4CCN(CCNC(=O)CC56CC7CC(CC(C7)C5)C6)CC4)nc3)cc3c2cnn3C(C)C)c(=O)[nH]1	MDA-MB-468	cell growth	–	–	–	GI50	2.2 µM
CCN1CCN(Cc2ccc(NC(=O)c3ccc(C)c(Oc4ncnc5cc(OC)c(OC)cc45)c3)cc2C(F)(F)F)CC1	Serine/threonine-protein kinase TAO2 (TAOK2, Homo sapiens, UniProt Q9UL54)	KINOMEscan competition binding	–	1.0 µM	–	residual probe binding	0.1%
c1ccc2[nH]c3c(N=NC4=NCCN4)c4ccccc4c-3nc2c1	K562	cytotoxicity, XTT	–	96 h	–	IC50	0.18 ± 0.15 µM
C[C@H]1CCCN1Cc1cc2cnc(NC(=O)c3ccc4c(cnn4C)c3)cc2[nH]1	MV4;11	mRNA decrease, RT-qPCR, item: MYC, HOXA9/10, MYB	–	72 h	–	lowest effective concentration	0.1 µM
Fc1cc(-c2ccc3c(n2)[nH]c2ccncc23)ccn1 [isotope labelled]	Microtubule-associated protein tau, paired helical filaments (MAPT, Homo sapiens, UniProt P10636)	radioligand binding	PHF tau brain homogenate	3.53 nM	higher = more binding	specific binding	3.73 a.u.
C[C@]12CCC(=O)C=C1CCC1C2CC[C@]2(C)C(n3cnc4ccccc43)=CCC12 (stereo partly drawn)	LNCaP	cell proliferation, XTT	–	7 days, together with: DHT 1 nM	–	IC50	1.8 µM
CCC1CCCCN1C(=O)CON=C1C=CCCC=CCCOC(=O)c2c(O)cc(O)cc2C1 (stereo not drawn)	SK-BR-3	Her-2 depletion, item: Her-2	–	overnight	–	EC50	< 1 µM
O=C1CCC(N2C(=O)c3cccc(NCCOCCOCCOCCN4CCN(c5ccc(-c6ccc7c(c6)C(=O)N(C(C(=O)Nc6nccs6)c6ccccc6)C7)cn5)CC4)c3C2=O)C(=O)N1 (stereo not drawn)	Ba/F3 wild-type EGFR	cell proliferation	–	–	–	EC50	> 10 µM
CN1CCC[C@H](C(=O)OCC(=O)[C@]2(O)CC[C@@H]3[C@H]4CCC5=CC(=O)CC[C@@]5(C)[C@H]4[C@@H](O)C[C@]32C)C1	NR3C1	nuclear translocation, agonist, enzyme fragment complementation	–	–	–	EC50	> 9 µM
O=c1/c(=C/c2ccccc2Cl)sc2nc3cc(Br)cnc3n12	Jurkat TAg T cells	TCR signalling, immunoblot	–	40 µM, 45 min preincubation, together with: OKT3 5 min	baseline: DMSO	phospho-p38 level	increased

Structure (SMILES)	target or system	test	system	setting	scale	endpoint	result
COc1cc(N2CCN(C)CC2)ccc1Nc1ncc2c(n1)N(C)c1ccccc1C(=O)N2	HEK293	inhibitor	–	2 µM	–	ACK1 autophosphorylation	inhibited
Nc1c(C(=O)Nc2c(F)cc(F)cc2Br)sc2nc3c(cc12)CCC3	H1299	–	–	concentration not given, 12 h	–	total SOD activity	increased
Cc1ccc([C@H](CC(=O)O)NC(=O)Nc2c(O)c(C)cn(Cc3ccccc3Cl)c2=O)cc1	B-ALL cells	western blot	–	25 µM, 1 h, together with: serum after starvation	–	AKT phosphorylation	no effect
CCCC1CC=CCCC(C)=CC(=NOCC(=O)N(CC)CC)Cc2c(Cl)c(O)cc(O)c2C(=O)O1 (stereo not drawn)	SK-BR-3	Her-2 depletion, item: Her-2	–	overnight	–	EC50	> 10 µM
CCN1CCN(Cc2ccc(Nc3ncc4c(n3)N(C)c3c(F)cccc3C(=O)N4C)cc2C(F)(F)F)CC1	HeLa S3	cell growth, CellTiter-Glo	–	96 h	–	EC50	0.792 µM
CC1CN(C(=O)CON=C2C=CCCC=CCCOC(=O)c3c(O)cc(O)cc3C2)CC(C)O1 (stereo not drawn)	SK-BR-3	Her-2 depletion, item: Her-2	–	overnight	–	EC50	≤ 5 µM
COc1cc(CC(=O)NCC(NC(=O)C(CCCNC(=O)c2cccc(I)c2)NC(=O)C(Cc2ccc(C(F)(F)P(=O)(O)O)cc2)NC(=O)c2ccc(C)c(Br)c2)C(N)=O)ccc1O (stereo not drawn)	primary mouse hepatocytes	Western blot	–	100 nM, together with: insulin 5 nM, 5 min	baseline: insulin alone	Foxo1 Ser253 phosphorylation	2.1 fold
C[C@H](CCC(=O)O)[C@H]1CC[C@]2(C)[C@@H]3C(=O)C[C@H]4C(C)(C)[C@@H](O)CC[C@]4(C)[C@H]3C(=O)C[C@@]12C	NR3C1	nuclear translocation, agonist, enzyme fragment complementation	–	–	–	EC50	> 9 µM
CCCC1C/C=C/CCCCC(=NOCC(=O)N2CCCCC2)Cc2c(Cl)c(O)cc(O)c2C(=O)O1 (stereo not drawn)	SK-BR-3	Her-2 depletion, item: Her-2	–	overnight	–	EC50	≤ 5 µM
Fc1cccc(-n2cnc3c(NCc4nc5cc(Cl)ccc5[nH]4)nc(N4CCNCC4)nc32)c1	Microtubule-associated serine/threonine-protein kinase 1 (MAST1, Homo sapiens, UniProt Q9Y2H9)	KINOMEscan competition binding	–	10 µM	baseline: control	remaining binding	6.2%
CC(C)c1cc2c(N3CCN(C4=NCC(C)(C)S4)CC3)ncnc2s1	E2A-HLF transduced mouse BMC	cell growth, MTT	–	–	–	GI50	> 50 µM
CN1C(=O)c2ccccc2N(C)c2nc(Nc3ccc(N4CCC(O)CC4)cc3)ncc21	HeLa S3	cell growth, CellTiter-Glo	–	96 h	–	EC50	0.0167 µM
C[C@]12CC[C@H](O)CC1=CC[C@@H]1[C@@H]2CC[C@]2(C)C(n3ccnn3)=CC[C@@H]12	LNCaP	cell proliferation, XTT	–	7 days, together with: DHT 1 nM	–	IC50	4.8 µM and 3.7 µM
O=C1c2cccc3cc([N+](=O)[O-])cc(c23)C(=O)N1NCCO	PC-12	neurite outgrowth	–	72 h, together with: 500 pM NGF	–	IC50	2.44 µM
O=C(O)CC1=C/C(=C\c2ccc(-c3ccccc3)cc2)c2ccc(F)cc21	OVCAR-3	WST-1	–	up to 25 µM, 2 d	–	growth inhibition	no effect
Cc1c(O)cc2c(c1C)O[C@](C)(CCCC(C)C)CC2	LNCaP-abl	cell proliferation, MTT	–	–	–	IC50	7 µM
CCCC1CC=CCCC(C)=CC(=NOCC(=O)N(CC)CC)Cc2cc(O)cc(O)c2C(=O)O1 (stereo not drawn)	SK-BR-3	Her-2 depletion, item: Her-2	–	overnight	–	EC50	> 10 µM
O=c1/c(=C/c2ccc(-c3cc(Cl)cc(Cl)c3)o2)sc2nc3cc(Br)cnc3n12	Jurkat TAg T cells	TCR signalling, immunoblot	–	40 µM, 45 min preincubation, together with: OKT3 5 min	baseline: DMSO	phospho-ERK1/2 level	increased

A few entries again:
Structure (SMILES)	target or system	test	system	setting	scale	endpoint	result
c1ccc2[nH]c3c(N=NC4=NCCN4)c4ccccc4c-3nc2c1	K562	cytotoxicity, XTT	–	96 h	–	IC50	0.18 ± 0.15 µM
C[C@H]1CCCN1Cc1cc2cnc(NC(=O)c3ccc4c(cnn4C)c3)cc2[nH]1	MV4;11	mRNA decrease, RT-qPCR, item: MYC, HOXA9/10, MYB	–	72 h	–	lowest effective concentration	0.1 µM
Fc1cc(-c2ccc3c(n2)[nH]c2ccncc23)ccn1 [isotope labelled]	Microtubule-associated protein tau, paired helical filaments (MAPT, Homo sapiens, UniProt P10636)	radioligand binding	PHF tau brain homogenate	3.53 nM	higher = more binding	specific binding	3.73 a.u.
